Measurements pooled from the literature.
Each numbered part is a random draw from the data of one study; scales do not carry over between parts.

Block 1 — technique: RNA Bind-n-Seq; molecule type: RNA; matrix: in vitro; concentration: 365 nM; relative to: no-protein control; reading: higher = stronger binding; measurement: RBNS enrichment (R)
Target: RNA binding protein fox-1 homolog 2, RRM domain, GST-SBP tag (RBFOX2, Homo sapiens, UniProt O43251-10, residues 100-194)
Setting: natural RNA segment, single round, ends assumed
Residues (chain): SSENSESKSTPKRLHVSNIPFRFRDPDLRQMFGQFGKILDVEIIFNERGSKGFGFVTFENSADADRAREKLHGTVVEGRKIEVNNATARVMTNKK
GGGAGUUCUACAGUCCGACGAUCGAAGGAACUUUAAAAAUCAUCCGGUCCAAUCUCUUUCCUCUUUCUGCCACCUCCCAAGGCAGAAAUCCCCUCUUCAGCUUCUUUUGUAGGUGGGAAUCCAGCCUCUGUUAUGGAAUUCUCGGGUGCCAA: 0.648
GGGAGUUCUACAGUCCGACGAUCGCUCAAAUCUGUUGUGUUUCUGAGUCUAGGGUCUGUACACUUGUUUAUAAUAAAUGCAAUCGUUUGGGCUGCUGCCCCCUUUCUUCCUGGCCUCGGCUGCUGGAAUUGGAUGGAAUUCUCGGGUGCCAA: 0.678
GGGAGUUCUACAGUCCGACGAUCUGAUGCCAAAGAGCUCAACGGGGCCUCUCAUGGUGAGCGUGGAUAGAUACGUGAUGUCUGGUCAUGUAGUGAGGGCCUUGGGGGCUUGCCUUUGAAUGCUAUAGCAUAUUUGGAAUUCUCGGGUGCCAA: 1.72
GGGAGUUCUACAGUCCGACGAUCUCGAGUCAAGCUUAUCCCCAUUUUUGAGAGAGAAGGGGUACCUUCACAGACCGAUGCCCUUCUUACCCCAAGUUCCCAUAAACACUUGCAUGCAGAAGCACACAGGACACUGGAAUUCUCGGGUGCCAA: 4.85
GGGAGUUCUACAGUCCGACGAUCGCACAUCUCCUACCAAAAUUGCUCCCAAGAUGGAGGGUGAGACCUCAGUGCUAGGUUGACAGGUGGGCGUCGCCAUGCCUGGACCAAUUCCUGCACAGCACAGGAAGGCUUGGAAUUCUCGGGUGCCAA: 0.181
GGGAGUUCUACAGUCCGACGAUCAAAGAAUUCGGUUGAAAAAAUAGAUCCAAUCAGUUUAUACCCUAGUUAGUGUUUUGCCUCACCUAAUAGGCUGGGAGACUGAAGACUCAGCCCGGGUGGGGCUGCAGAAAUGGAAUUCUCGGGUGCCAA: 0.448
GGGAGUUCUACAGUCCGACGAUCUUUCUGGUGGUCUGUUGGCAGGCUGGCCAGUCCAGGCUGCCGUGGGGCCGCCGCCUCUUUCAAGCAGUCGUGCCUGUGUCCAUGCGCUCAGGGCCAUGCUGAGGCCUGGGUGGAAUUCUCGGGUGCCAA: 1.2
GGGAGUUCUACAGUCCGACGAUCCAGCCAAAACCUGGCCUGGCUACCAAGAAGAGUGGGAAGACAGGAGGAGCAGACUGCUGCUGUUUUGGGGCUAGAUCCUUUCCUCUCCUCUCUGCUGCACCACUGUCAGAUGGAAUUCUCGGGUGCCAA: 0.41
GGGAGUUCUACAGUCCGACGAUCUUCAACGUUAUUUACAUGUAAAUAGACAAAAGGAAACAUUUGCCAAAAGCGGCAGAUCUUUACUGAAAGAGAGAGCAGCUGUUAUGCAACAUAUAGAAAAAUGUAUAGAUUGGAAUUCUCGGGUGCCAA: 0.36
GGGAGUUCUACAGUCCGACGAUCAGUCUUUUUCCCCUCAACCUGUGGUAUUUGCAGAUGACAACUUUGAAAAUAAAGCAGUCUCGGGCAGAGACGCUGUGUGACAUGUUGGCUGACAAAUUAGUCAUUGCUUAUGGAAUUCUCGGGUGCCAA: 0.244
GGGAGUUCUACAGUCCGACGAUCUGCCCCCGAUAGCAUAGUGUGUGCCAACCGGUACACCUGACUCAGCAUUAGGAUCCUAUAACCAUGCCUGUCCCUGCUCUGUGUUUUAGGGAAGUGACAUAAAGUGAGGUUGGAAUUCUCGGGUGCCAA: 0.29
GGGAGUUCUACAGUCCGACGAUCGCAAAACCAGGUGUUGCUUUGCUAUGUUCCUGUACACUGUGGGAGAGGUAAUAGCAUCUGUGGGACACAGCAGAAUUGUACAAGUGUACAAUUAGUGUGUAGCAGAGCACUGGAAUUCUCGGGUGCCAA: 0.491

Block 2 — technique: universal PBM; molecule type: double-stranded DNA, one strand shown; matrix: in vitro; concentration: 600 nM; reading: higher = stronger binding; measurement: E-score
Target: Sal-like protein 4, full length isoform A (SALL4, Homo sapiens, UniProt Q9UJQ4, residues 1-1053)
Sequence of UniProt Q9UJQ4 (whole entry, looked up): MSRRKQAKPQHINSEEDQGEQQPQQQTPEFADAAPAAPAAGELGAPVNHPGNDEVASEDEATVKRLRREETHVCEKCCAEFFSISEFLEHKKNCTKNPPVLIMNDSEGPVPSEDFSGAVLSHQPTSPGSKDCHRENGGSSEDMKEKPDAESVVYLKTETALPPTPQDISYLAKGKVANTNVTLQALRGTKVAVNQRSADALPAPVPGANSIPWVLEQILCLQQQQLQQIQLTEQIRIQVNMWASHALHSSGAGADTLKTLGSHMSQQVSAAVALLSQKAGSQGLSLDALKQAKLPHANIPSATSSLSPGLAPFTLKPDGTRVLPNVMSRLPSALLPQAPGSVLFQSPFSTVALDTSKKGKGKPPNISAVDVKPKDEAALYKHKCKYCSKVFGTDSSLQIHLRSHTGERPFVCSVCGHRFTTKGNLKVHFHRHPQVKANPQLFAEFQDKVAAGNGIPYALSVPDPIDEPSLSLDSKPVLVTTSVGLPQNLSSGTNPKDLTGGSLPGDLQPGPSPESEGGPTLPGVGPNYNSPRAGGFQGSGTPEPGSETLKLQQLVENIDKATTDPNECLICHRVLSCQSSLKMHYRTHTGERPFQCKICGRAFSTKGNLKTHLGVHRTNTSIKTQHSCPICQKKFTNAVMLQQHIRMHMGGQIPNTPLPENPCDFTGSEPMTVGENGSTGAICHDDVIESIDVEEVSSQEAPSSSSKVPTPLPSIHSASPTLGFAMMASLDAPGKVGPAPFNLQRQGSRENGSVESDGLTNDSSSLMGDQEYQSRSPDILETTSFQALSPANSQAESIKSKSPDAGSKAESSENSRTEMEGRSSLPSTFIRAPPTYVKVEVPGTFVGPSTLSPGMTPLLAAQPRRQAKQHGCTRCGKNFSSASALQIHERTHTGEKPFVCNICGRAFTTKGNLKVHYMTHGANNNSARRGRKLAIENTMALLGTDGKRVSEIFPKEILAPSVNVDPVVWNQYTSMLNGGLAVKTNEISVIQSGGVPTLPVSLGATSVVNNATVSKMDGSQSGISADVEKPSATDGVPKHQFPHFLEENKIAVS
Setting: 8-mer, flanks averaged, mean of replicates
ACTACATA: 0.289
AACTCAAG: 0.147
GTATGACA: 0.249
AATAAGGA: 0.184
GACCAGGA: -0.219
GCCTGCGC: -0.323
CAGAAGCC: -0.131
CCCAGCGA: -0.288
ATTTCTAC: 0.23
CACCCGTA: -0.224
CGGAAAGC: -0.13
AACTCGAA: -0.014
CTCTGGAC: -0.128
GCACCATA: 0.0804
ATTGTGCA: 0.0931
ATCCTGAG: 0.0848
ACACTTCA: 0.161

Block 3 — technique: protein binding microarray; molecule type: double-stranded DNA, one strand shown; matrix: in vitro; concentration: not given; relative to: not given; reading: higher = stronger binding; measurement: E-score
Target: Histone acetyltransferase KAT6A, both winged helices, GST fusion (KAT6A, Homo sapiens, UniProt Q92794, residues 1-181)
Setting: 8-mer, flanks averaged, mean of 2 arrays, mostly near background
Construct (chain): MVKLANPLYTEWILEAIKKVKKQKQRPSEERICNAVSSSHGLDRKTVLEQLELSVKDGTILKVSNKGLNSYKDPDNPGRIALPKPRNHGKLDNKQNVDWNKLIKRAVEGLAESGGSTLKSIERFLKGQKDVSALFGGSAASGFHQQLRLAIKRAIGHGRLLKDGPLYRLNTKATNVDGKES
TCTTAACA: -0.0705
GAGGTACA: -0.232
AAACTAAG: -0.0655
CGTAAATA: 0.0604
CCTTCGCG: 0.171
GCAAGAGC: -0.0571
ATTTAGGG: -0.0353
AGGTTTAC: -0.119
CGTTGAGC: 0.121
ATCATTTC: -0.106
CTATGCGA: 0.106
AACAAGTG: -0.0656
AAGTAGGC: -0.117
ATATATAC: 0.0631
AATGCCGC: 0.32
GACCTCAA: -0.128
AGCGCCAA: 0.0958
CATTCAAC: 0.00116
CCCGAAAG: -0.0555
AGGGGCTC: -0.224
ATTAGTCC: -0.0413
ACTGGTTC: 0.0242
CATAGGGC: -0.0134
ACAACCTC: 0.0173
CCCCGCGA: 0.233

Block 4 — technique: RNA Bind-n-Seq; molecule type: RNA; matrix: in vitro; concentration: not given; relative to: input RNA pool; reading: higher = stronger binding; measurement: bound/input enrichment
Target: RING finger protein unkempt homolog, zinc fingers 1-6, GST-SBP tag (UNK, Homo sapiens, UniProt Q9C0B0, residues 30-357)
Setting: RNA with constant flanks, human-mouse chimeric sites, ends assumed
Target sequence (chain): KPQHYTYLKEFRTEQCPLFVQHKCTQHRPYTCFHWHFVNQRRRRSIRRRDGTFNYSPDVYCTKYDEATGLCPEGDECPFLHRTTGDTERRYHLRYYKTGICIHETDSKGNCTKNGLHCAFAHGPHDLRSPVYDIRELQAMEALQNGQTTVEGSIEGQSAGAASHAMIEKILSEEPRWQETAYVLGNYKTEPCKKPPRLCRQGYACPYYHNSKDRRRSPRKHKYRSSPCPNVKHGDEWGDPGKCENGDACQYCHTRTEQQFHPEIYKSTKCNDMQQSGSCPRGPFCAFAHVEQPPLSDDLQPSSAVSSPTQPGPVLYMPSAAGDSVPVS
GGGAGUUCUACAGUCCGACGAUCCGCAGAAGGUUAAAGGGUGAGAGUGGGGUGGAAGACUGUGUCAUGGCUCUGGAGACACUGUUCAGUGUUCUGCUUUCUCUGUGCAGACUGAUGGCCCCUUACACGCCCUUUCUGACUGAGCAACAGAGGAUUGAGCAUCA: 0.0703 ratio
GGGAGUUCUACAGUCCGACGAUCGGGGAGAAACCUUACGAGUGUGUGCAGUGUGGGAAAUCCUACAGUCAGAGCUCAAACCUCUUCAGACAUCAGAGACGACACAAUGCAGAAAAACUUCUGAAUGUUGUGAAGGUUUAAGAACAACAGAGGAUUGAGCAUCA: 0.129 ratio
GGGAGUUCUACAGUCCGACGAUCAUUGUUGAAGCGAAUCCACUCCUAGAAGCAUUUGGAAAUGCGAAGACUGUUCGCAACAAUAAUAGCAGUCGAUUUGGAAAAUUUGUAGAAAUUCAUUUCAAUGAAAAGAGUUCGGUUGUUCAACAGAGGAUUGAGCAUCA: 0.304 ratio
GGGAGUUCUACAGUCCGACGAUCAUGGAACAUUUUGAUGCGUCACUCAGUACCUAUUUCAAGGCCUUCCUAGGCCCUCGAGAUACAAGAGUCAAAGGAUGGUUCCUCCUGGACAAUUACAUCCCUACGUUUGUCUGUUCUGUUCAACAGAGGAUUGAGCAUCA: 0.108 ratio
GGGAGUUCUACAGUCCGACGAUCUUCUAGUAUGAUGGUGAUAUUGGCAAUUAUUAUUAUGGCCAGGGUCAUCCCAUGAAGCCUCAUAGAAUCCGGAUGACUCAUAACUUGCUGCUAAAUUAUGGCUUAUACCGAAAAAUGGAACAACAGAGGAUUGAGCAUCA: 0.212 ratio
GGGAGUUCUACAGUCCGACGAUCCUCGGCACCGGCACGCUUUACAUCGCGGAGAGCCGCCUGUCCUGGUUAGAUGGCUCUGGAUUAGGAUUCUCACUGGAAUACCCCACCAUUAGUUUACAUGCAUUAUCCAGGGAUCCAAACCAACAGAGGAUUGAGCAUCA: 2.05 ratio
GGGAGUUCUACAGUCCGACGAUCUCUUAACUUAUUCAUUUAACUUAUUUUUAUAGCUAGAUAAAUAUUGUUAGUCUUAGACAAUAGCUCACAUCUUUACAGAAGCAUGCCCUCCCUGUCCAUUUGUCUUAUAACAUGACCCAGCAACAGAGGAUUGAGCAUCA: 6.2 ratio
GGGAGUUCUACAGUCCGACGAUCUCUGGUCACACUCGUGUGUAUGGUGUUUGCUUUGUUGACACUUCACUGGGAAAGUUUUUCAUCGGCCAGUUUUCGGAUGACCGCCACUGUUCCAGAUUUAGGACGCUAGUGGCUCACUAUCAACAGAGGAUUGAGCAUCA: 0.255 ratio
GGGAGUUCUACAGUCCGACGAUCAGAAUCUUGGGACUGUUUUACUUAAUUGGUCAUUGAUAGCUUAACAAACAUGGAGAUAAGAUUAGAAAUCUUGACAUCAACAGGUAUCAAGCAGAAAAAACCAUGGCCCAGAGUAUCCUGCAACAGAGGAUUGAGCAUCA: 0.112 ratio
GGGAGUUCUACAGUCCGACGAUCGGACAUCUGUCAAAUUGUUAUGUUCCUGUGAAACAAGUGAGCACUUUGAUACACUUCAUCUGCUUGUACAUCUGUAUUUGUAUAAUAUGUAAAUAUGUUAAUCCAAGCAAUGUGUCACUUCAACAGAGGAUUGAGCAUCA: 0.209 ratio
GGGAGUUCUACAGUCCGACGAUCCGAGACAAGACAUCCAGGAACAUGCGAGGCUCCCGGAUGAAUGGGUUGCCUAGCCCCACUCACAGCGCCCACUGUAGCUUCUACAGAACCAGAACCUUGCAGGCACUGAGUAAUGAGAAGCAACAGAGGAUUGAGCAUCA: 0.0932 ratio

Some of these lines once more (block 3):
AATGCCGC: 0.32
GACCTCAA: -0.128
AGCGCCAA: 0.0958
CATTCAAC: 0.00116
CCCGAAAG: -0.0555
AGGGGCTC: -0.224
ATTAGTCC: -0.0413
